Measured values pooled from the literature.
Lines come from different studies, so protocols differ. ± gives the spread as reported.

COc1cc2c(cc1O)[C@]1(O)C(=O)c3c(O)cc4c(c3O[C@@H]1CO2)C=CC(C)(C)O4
viability (K562; cell growth or viability, MTT; 6.25 µg/mL): 67.8%

Cc1ncsc1-c1ccc(CNC(=O)[C@@H]2C[C@@H](O)CN2C(=O)[C@@H](NC(=O)CN2CCN(C3CN(CCNC(=O)C[C@@H]4N=C(c5ccc(Cl)cc5)c5c(sc(C)c5C)-n5c(C)nnc54)C3)CC2)C(C)(C)C)cc1
kinetic solubility (Sf9; culture medium): > 200 µM

CNC(=O)C(Cc1ccccc1)NC(=O)C(O)(Cc1ccccc1)CN(Cc1ccc(Br)cc1)NC(=O)C(NC(=O)OC)C(C)(C)C (centres unmarked)
Papp A-to-B (2/4/A1 rat cell monolayer; pH 7.4, 1% BSA in receiver): 218 ± 5.8 ×10⁻⁶ cm/s

NCC1OC(OC2C(N)CC(N)C(OC3OC(CO)C(O)C(N)C3O)C2OCCCCCCCCCCCCn2cc(CNc3nc(NCc4cn(CCCCCCCCCCCCOC5C(OC6OC(CN)C(O)CC6N)C(N)CC(N)C5OC5OC(CO)C(O)C(N)C5O)nn4)nc(NCc4cn(CCCCCCCCCCCCOC5C(OC6OC(CN)C(O)CC6N)C(N)CC(N)C5OC5OC(CO)C(O)C(N)C5O)nn4)n3)nn2)C(N)CC1O (centres unmarked)
viability (Hep G2; PrestoBlue; 2 µM, 48 h; baseline: untreated): 70%

CCCCn1cc(C(=O)O)c(=O)c2cc(F)c3[nH]nnc3c21
IC50 (T47D; cell growth or viability, SRB): 41.2 µM

N=C(N)NCCC[C@H](NC(=O)[C@H](CCCNC(=N)N)NC(=O)[C@H](CCCNC(=N)N)NC(=O)[C@H](CCCNC(=N)N)NC(=O)[C@H](CCCNC(=N)N)NC(=O)[C@H](CCCNC(=N)N)NC(=O)[C@H](CCCNC(=N)N)NC(=O)[C@H](CCCNC(=N)N)NC(=O)[C@H](Cc1c[nH]cn1)NC(=O)[C@H](Cc1c[nH]cn1)NC(=O)[C@H](Cc1c[nH]cn1)NC(=O)[C@H](Cc1c[nH]cn1)NC(=O)[C@H](Cc1ccccc1)NC(=O)[C@H](Cc1ccccc1)NC(=O)[C@H](Cc1ccccc1)NC(=O)[C@H](Cc1ccccc1)NC(=O)[C@@H](N)Cc1ccccc1)C(N)=O
viability (MCEC; MTT; 32 µM, 4 h, peptide complex, N/P 20, read 3 days later): ~90%

COc1ccc(NC(=O)c2ccc(-c3ccc(C(=N)N)cc3C)cc2)cc1N1CCN(C)CC1
cytotoxicity (Calu-3; ATP content; concentration not given, 48 (unit not given)): 0%

COC(=O)CC[C@@H](NC(=O)[C@@H](Cc1ccc(OP(=O)(O)O)cc1)NC(=O)[C@@H](Cc1ccccc1)NC(=O)[C@@H](Cc1ccccc1)NC(=O)Cc1ccc2ccccc2c1)C(=O)OC
remaining compound (SAOS-2; 200 µM, 24 h): 15.2%

CC(C)=CCc1cc(-c2coc3cc(O)c(CC=C(C)C)c(O)c3c2=O)ccc1O
viability (K562; cell growth or viability, MTT; 50 µg/mL): 9.22%

O=[N+]([O-])c1ccc(/C=N/N=C/c2ccc(Br)cc2)o1
CC50 (MDBK; CCK-8; 72 h): > 310 µM

COC(=O)NC(C(=O)NN(Cc1ccc(C=Cc2ccccc2)cc1)CC(O)(Cc1ccccc1)C(=O)NC1c2ccccc2CC1O)C(C)(C)C (centres unmarked)
Papp A-to-B (2/4/A1 rat cell monolayer; pH 7.4, 1% BSA in receiver): 32 ± 2.5 ×10⁻⁶ cm/s

CCCCn1cc(C(=O)O)c(=O)c2cc(F)c(Nc3ccccc3OC)c([N+](=O)[O-])c21
IC50 (T47D; cell growth, SRB; 72 h): 133 ± 2.66 µg/mL

Cn1c2ccc(Cl)c(=O)c-2nc2ccccc21
selectivity ratio (MRC5 and A549; WST-8; 72 h; baseline: MRC5 IC50 over A549 IC50): ≥ 5.8 fold

CC(=O)N[C@H](C(=O)N[C@H](C(=O)N[C@@H](CCCNC(=N)N)C(=O)N1Cc2ccccc2C[C@H]1C(=O)N[C@@H](Cc1ccccc1)C(N)=O)C1CCCCC1)C(C)C
cytokine level (human PBMC; Bio-Plex multiplex, measured: IFN-g; 250 µg/mL, 24 h): 28 ± 18.4 pg/mL
